# Results of several laboratories.
# Compare with care: the assays were run in different laboratories. Numbers after ± are the reported error.
# sdiA: Regulatory protein SdiA (sdiA, Escherichia coli, UniProt P07026)
# Chain of UniProt P07026 (whole entry, looked up): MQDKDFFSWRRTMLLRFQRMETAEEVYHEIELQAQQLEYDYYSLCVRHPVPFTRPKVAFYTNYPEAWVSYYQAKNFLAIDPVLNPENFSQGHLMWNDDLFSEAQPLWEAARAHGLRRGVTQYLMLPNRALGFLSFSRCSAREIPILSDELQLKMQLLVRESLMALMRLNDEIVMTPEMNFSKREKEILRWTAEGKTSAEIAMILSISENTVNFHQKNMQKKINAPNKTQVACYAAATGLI
# Histidine kinase AgrC: Histidine kinase AgrC (Listeria monocytogenes, UniProt A8E0G3)
# Chain of UniProt P35372 (whole entry, looked up): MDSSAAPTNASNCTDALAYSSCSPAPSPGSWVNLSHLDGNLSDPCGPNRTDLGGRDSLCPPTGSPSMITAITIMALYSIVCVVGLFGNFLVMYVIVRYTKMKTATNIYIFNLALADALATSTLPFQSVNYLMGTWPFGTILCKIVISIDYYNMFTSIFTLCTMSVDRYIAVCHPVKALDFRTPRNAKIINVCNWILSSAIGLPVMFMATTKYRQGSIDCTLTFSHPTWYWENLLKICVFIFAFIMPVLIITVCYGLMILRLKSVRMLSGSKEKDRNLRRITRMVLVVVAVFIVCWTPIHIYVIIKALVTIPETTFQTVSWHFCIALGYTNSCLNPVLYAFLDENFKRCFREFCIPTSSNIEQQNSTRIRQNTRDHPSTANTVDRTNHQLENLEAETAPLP
# Chain of UniProt Q9UKP6 (whole entry, unmodified, looked up): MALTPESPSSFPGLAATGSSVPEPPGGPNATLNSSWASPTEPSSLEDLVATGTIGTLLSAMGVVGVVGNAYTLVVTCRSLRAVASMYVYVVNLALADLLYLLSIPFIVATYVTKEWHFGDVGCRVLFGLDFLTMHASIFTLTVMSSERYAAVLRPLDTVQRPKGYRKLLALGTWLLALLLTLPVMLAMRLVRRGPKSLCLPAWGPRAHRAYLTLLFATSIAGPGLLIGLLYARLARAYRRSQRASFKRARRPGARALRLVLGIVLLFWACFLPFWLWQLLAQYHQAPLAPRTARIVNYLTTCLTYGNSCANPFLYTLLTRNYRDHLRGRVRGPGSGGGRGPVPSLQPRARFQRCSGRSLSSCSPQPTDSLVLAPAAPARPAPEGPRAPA
# Chain of UniProt Q03431 (whole entry, looked up): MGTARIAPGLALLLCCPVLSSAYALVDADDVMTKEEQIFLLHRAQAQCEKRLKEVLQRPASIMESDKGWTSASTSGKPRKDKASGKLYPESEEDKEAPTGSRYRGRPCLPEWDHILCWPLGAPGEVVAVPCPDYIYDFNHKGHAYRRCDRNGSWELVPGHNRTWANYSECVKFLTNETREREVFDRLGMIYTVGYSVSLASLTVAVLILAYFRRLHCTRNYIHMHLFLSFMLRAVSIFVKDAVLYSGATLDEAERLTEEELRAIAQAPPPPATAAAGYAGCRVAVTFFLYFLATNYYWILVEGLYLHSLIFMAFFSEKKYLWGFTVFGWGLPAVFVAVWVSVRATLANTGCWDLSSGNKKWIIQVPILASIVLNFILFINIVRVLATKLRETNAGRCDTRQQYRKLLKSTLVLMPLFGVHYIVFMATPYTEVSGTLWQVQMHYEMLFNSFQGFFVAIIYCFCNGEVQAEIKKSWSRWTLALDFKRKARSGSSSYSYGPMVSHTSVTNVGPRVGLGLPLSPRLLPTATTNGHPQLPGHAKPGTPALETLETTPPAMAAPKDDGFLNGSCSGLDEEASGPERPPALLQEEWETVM
# Chain of UniProt P41143 (whole entry, unmodified, looked up): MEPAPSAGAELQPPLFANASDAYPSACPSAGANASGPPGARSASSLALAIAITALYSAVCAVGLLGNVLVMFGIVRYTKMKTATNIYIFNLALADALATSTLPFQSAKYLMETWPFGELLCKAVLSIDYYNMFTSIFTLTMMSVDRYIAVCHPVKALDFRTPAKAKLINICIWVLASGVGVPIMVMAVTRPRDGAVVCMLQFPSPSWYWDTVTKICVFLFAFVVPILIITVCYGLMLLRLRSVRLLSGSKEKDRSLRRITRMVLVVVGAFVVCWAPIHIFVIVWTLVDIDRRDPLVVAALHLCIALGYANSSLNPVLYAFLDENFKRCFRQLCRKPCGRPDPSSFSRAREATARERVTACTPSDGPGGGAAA
# Chain of UniProt Q8BZ39 (whole entry, looked up): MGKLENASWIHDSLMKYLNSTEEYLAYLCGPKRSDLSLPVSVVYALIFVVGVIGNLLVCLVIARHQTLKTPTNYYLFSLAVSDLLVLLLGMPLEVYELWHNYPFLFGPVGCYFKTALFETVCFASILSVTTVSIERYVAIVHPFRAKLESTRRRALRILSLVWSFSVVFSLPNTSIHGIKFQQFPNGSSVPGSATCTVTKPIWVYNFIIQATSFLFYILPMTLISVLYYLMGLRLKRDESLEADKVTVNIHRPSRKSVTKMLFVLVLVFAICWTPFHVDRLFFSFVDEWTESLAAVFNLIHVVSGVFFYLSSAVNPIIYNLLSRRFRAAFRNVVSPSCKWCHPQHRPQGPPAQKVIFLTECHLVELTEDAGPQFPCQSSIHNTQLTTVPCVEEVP
Compound,target,assay,system,conditions,EC50 [nM]
O=C(COc1ccc(I)cc1)N[C@H]1CCOC1=O,sdiA,,,,5.68
CCCCCCCCCCCCCCCCCC(=O)NC[C@H]1CC[C@H](C(=O)N[C@@H](CCC(=O)NCCCOCCOCCOCCCNC(=O)COCC(=O)N[C@@H](Cc2ccc(O)cc2)C(=O)NC(C)(Cc2ccccc2)C(=O)N[C@@H](CC(C)C)C(=O)N[C@@H](CCCC)C(=O)N[C@@H](CCCNC(=N)N)C(=O)N2CCC[C@H]2C(=O)N[C@@H](CCCNC(=N)NC)C(=O)N[C@@H](CC(N)=O)C(N)=O)C(=O)O)CC1 (stereo partly drawn),"Neuromedin-U receptor 2 (Mus musculus, UniProt Q8BZ39)","beta-arrestin recruitment, agonist",,,3.1
CN(C)[C@H](CNC(=O)/C=C/c1cccc2ccccc12)Cc1ccc(O)cc1,"Mu-type opioid receptor, with Gi1 (OPRM1, Homo sapiens, UniProt P35372)","receptor activation, agonist",,,14 ± 1
CSCC[C@@H]1NC(=O)[C@H](Cc2ccccc2)NC(=O)[C@@H](N)CSC(=O)[C@H](C(C)C)NC(=O)[C@H](Cc2ccccc2)NC1=O,Histidine kinase AgrC,,,,107
Cc1cc(O)cc(C)c1C[C@H](N)C(=O)N[C@H](CCCNC(=N)N)C(=O)N[C@@H](Cc1ccccc1)C(=O)N(C)CC(=O)N(C)Cc1cc(C(F)(F)F)cc(C(F)(F)F)c1,"OPRD1 (Homo sapiens, UniProt P41143, N90S)","receptor activation, agonist",,,45.7 ± 7.4
O=C(CCc1ccc(Br)cc1)N[C@H]1CCOC1=O,"lasR (Pseudomonas aeruginosa, UniProt P25084)","reporter gene, agonist",ΔmexAB-oprM pump mutant,,24000
O=C(Cc1cccc(C(F)(F)F)c1)N[C@H]1CCOC1=O,sdiA,,,,3.92
CCCC[C@H](NC(=O)[C@H](CC(C)C)NC(=O)[C@H](CCC(N)=O)NC(=O)[C@@H](NC(=O)[C@H](CCC(=O)O)NC(=O)C(C)(C)NC(=O)[C@@H](NC(=O)C1(N)CCCC1)C(C)C)[C@@H](C)CC)C(=O)N[C@@H](Cc1c[nH]cn1)C(=O)N[C@@H](CCC(N)=O)C(=O)N[C@@H](CCCCNC(=N)N)C(=O)N[C@@H](C)C(=O)N[C@@H](CCCCNC(=O)[C@H](CCCNC(=N)N)NC(=O)CCCCCCCCCCCCCCCCC(=O)O)C(N)=O,"PTH1R (Homo sapiens, UniProt Q03431)","cAMP, agonist, GloSensor",GP-2.3,20 min,0.38
CCCCCCCC(=O)N[C@H]1CCSC1=O,sdiA,,,,1.64
CC(C)[C@H](NC(=O)[C@@H]1CSSC(C)(C)[C@H](NC(=O)[C@@H](N)CC(=O)O)C(=O)N[C@@H](Cc2ccccc2)C(=O)N[C@@H](Cc2c[nH]c3ccccc23)C(=O)N[C@@H](CCCCN)C(=O)N[C@@H](Cc2ccc(O)cc2)C(=O)N1)C(=O)O,"UTS2R (Homo sapiens, UniProt Q9UKP6, V152A)","IP1 accumulation, agonist, HTRF",HEK293T,"1 h, 37 °C, V152A mutant, 3.54",1.58
CSCC[C@@H]1NC(=O)[C@H](Cc2ccccc2)NC(=O)[C@H](NC(=O)[C@H](C)N)CSC(=O)[C@H](C(C)C)NC(=O)[C@H](Cc2ccccc2)NC1=O,Histidine kinase AgrC,,,,106
O=C(Cc1cccc(Cl)c1)N[C@H]1CCOC1=O,sdiA,,,,1.19

# A few entries again:
Compound,target,assay,system,conditions,EC50 [nM]
CN(C)[C@H](CNC(=O)/C=C/c1cccc2ccccc12)Cc1ccc(O)cc1,"Mu-type opioid receptor, with Gi1 (OPRM1, Homo sapiens, UniProt P35372)","receptor activation, agonist",,,14 ± 1
